# Assay results from different studies.
# ± gives the spread as reported.
Compound,system,setting,tissue uptake
O=C(O)CC[C@H](NC(=O)O[C@@H](CCCCNC(=O)c1ccc([18F])cc1)C(=O)O)C(=O)O,"mouse, PC-3 PIP/flu xenografts, large intestine",60 min,0.62 ± 0.27 %ID/g
"O=C(c1ccc(F)cc1)C1CCN(C2Cc3c(cccc3OCC[18F])CC2O)CC1 (single isomer, unassigned; (-))","Sprague-Dawley rat, male, kidney","intravenous, dose not given, 5 min",2.36 ± 0.52 %ID/g
N=C(N)NCc1ccc(C(=O)NCCCC[C@H](NC(=O)CCCCCCC(=O)NCCCC[C@H](NC(=O)N[C@@H](CCC(=O)O)C(=O)O)C(=O)O)C(=O)O)cc1[131I],"SCID mouse, PC-3 xenografts, blood",1 h,0.46 ± 0.17 %ID/g
C=Cc1cc(O)cc2nc(-c3ccc(O)c([76Br])c3)oc12,"female C57BL/6 mouse, ovaries","6 h, high dose",0.07 ± 0.02 %ID/g
N=C(N)NCc1ccc(C(=O)NCCCC[C@H](NC(=O)CCCCCCC(=O)NCCCC[C@H](NC(=O)N[C@@H](CCC(=O)O)C(=O)O)C(=O)O)C(=O)O)cc1[211At],"SCID mouse, PC-3 xenografts, liver",21 h,0.59 ± 0.21 %ID/g
COc1cc(C(=O)NCCOCCOCCOCCNC(=O)c2ccc([18F])nc2)ccc1NC(=O)C1NC(CC(C)(C)C)C(C#N)(c2ccc(Cl)cc2F)C1c1cccc(Cl)c1F (stereo not drawn),"athymic male mice, HepG2 xenograft, bladder",2 h,2.55 ± 2.73 %ID/g
CCCC[C@H](NC(=O)CCOCCOCCNC(=O)CN1CCN(CC(=O)O)CCN(CC(=O)O)CCN(CC(=O)O)CC1)C(=O)N[C@H]1CC(=O)NCCCC[C@@H](C(N)=O)NC(=O)[C@H](Cc2c[nH]c3ccccc23)NC(=O)[C@H](CCCNC(=N)N)NC(=O)[C@@H](Cc2ccccc2)NC(=O)[C@H](Cc2c[nH]cn2)NC1=O [gallium-68 labelled],"C57BL/6J mice male B16-F10 tumour, heart","1 h post injection, unblocked",0.2 ± 0.1 %ID/g
CN[C@](C)(C[18F])C(=O)O,"SCID mouse DU-145 xenograft, lung",30 min post injection,3 ± 0.5 %ID/g
N=C(N)NCc1ccc(C(=O)NCCCC[C@H](NC(=O)N[C@@H](CCC(=O)O)C(=O)O)C(=O)O)cc1[131I],"SCID mouse, PC-3 xenografts, lungs",21 h,0.05 ± 0.01 %ID/g
COc1cc2ncnc(Oc3cccc(N[11C](=O)Nc4cc(C(C)(C)C(F)(F)F)on4)c3)c2cc1OC,"Balb/c nude mouse, female, A375 melanoma xenograft, kidney","6.6 MBq, 60 min",9.77 ± 0.45 %ID/g
CCNc1cc2[o+]c3cc(NCC)c(C)cc3c(-c3ccccc3C(=O)OCCOCC[18F])c2cc1C,"rat, kidney",30 min,7.9 ± 1.05 %ID/g
N=C(N)NCc1ccc(C(=O)NCCCC[C@H](NC(=O)N[C@@H](CCC(=O)O)C(=O)O)C(=O)O)cc1[211At],"SCID mouse, PC-3 xenografts, heart",4 h,0.75 ± 0.34 %ID/g
